Measured values gathered from unrelated publications.
Protocols differ between the studies behind these lines.
Matrix: Caco-2

| Structure (SMILES) | tested at | time | pH | quantity | value |
| --- | --- | --- | --- | --- | --- |
| CS(=O)(=O)c1ccc(-c2cc(Cl)c(C(=O)N[C@@H](CNC(=O)CNC(=O)c3cccc(NC(=N)N)c3)C(=O)O)c(Cl)c2)cc1 | – | – | – | Papp B→A | 0.5 ×10⁻⁶ cm/s |
| CNC(=N)NC(=N)NCCCCCCNC(=N)NC(=N)NC | 5 µM | 2 h | – | Papp B→A | 0.37 ×10⁻⁶ cm/s |
| N#Cc1ccnc(N2C(=O)CC[C@H]2C(=O)N(c2cc(F)cc(F)c2)[C@H](C(=O)NC2CC(F)(F)C2)c2ccccc2Cl)c1 (stereo in doubt) | – | – | – | Papp A→B | 14.2 ×10⁻⁶ cm/s |
| O=C(Nc1ccc(C(F)F)cc1)[C@H](CC1CCCCC1)Nc1nn2c(=O)ccnc2s1 | 5 µM | 2 h | pH 7.4 | Papp A→B | 1.67 ×10⁻⁶ cm/s |
| N#Cc1ccnc(N2C(=O)CC[C@H]2C(=O)N(c2cc(F)cc(S(N)(=O)=O)c2)[C@H](C(=O)NC2CC(F)(F)C2)c2ccccc2Cl)c1 | – | – | – | Papp A→B | 0.19 ×10⁻⁶ cm/s |
| CN1CCC[C@@H]1C(=O)N[C@@H](Cc1ccc(-c2ccccc2)cc1)B(O)O | 5 µM | 1 h | – | Papp B→A | 14 ×10⁻⁶ cm/s |
| O=C(CNC(=O)c1cccc(NC2=NCCCN2)c1)NC[C@H](NC(=O)c1c(Cl)cc(-c2ccccc2)cc1Cl)C(=O)O | – | – | – | Papp B→A | 1.1 ×10⁻⁶ cm/s |
| N#Cc1cccc(-c2ccc(=O)n(Cc3cccc(-c4ncc(OCC5CCN(CC(=O)N6CCN(c7ccc8c(c7)C(=O)N(C7CCC(=O)NC7=O)C8=O)CC6)CC5)cn4)c3)n2)c1 (centres unmarked) | 2 µM | 2 h | pH 7.4 | Papp B→A | 0.79 ×10⁻⁶ cm/s |
| O=C(CNC(=O)c1cccc(NC2=NCCCO2)c1)NC[C@H](NC(=O)c1c(Cl)cc(-c2ccccc2)cc1Cl)C(=O)O | – | – | – | Papp A→B | 0.5 ×10⁻⁶ cm/s |
| O=c1c2sccc2n(CC2COc3ccccc3O2)c(=O)n1O (centres unmarked) | 10 µM | – | – | Papp A→B | 13.1 ×10⁻⁶ cm/s |
| CCC(CC)CNC(=N)NC(=N)NCCCCCCNC(=N)NC(=N)NCC(CC)CC | 5 µM | 2 h | – | Papp A→B | 0.27 ×10⁻⁶ cm/s |
| O=c1c(-c2cnn(-c3ccccc3)c2)c(C(F)(F)F)oc2c(O)c(O)ccc12 | – | – | – | Papp A→B | 31.4 ×10⁻⁶ cm/s |
| N#C/N=C(\N)Nc1cccc(C(=O)NCC(=O)NC[C@H](NC(=O)c2c(Cl)cc(-c3ccccc3)cc2Cl)C(=O)O)c1 | – | – | – | Papp A→B | 0.15 ×10⁻⁶ cm/s |
| CCCCC(CC)CNC(=N)NC(=N)NCCCCCCCCNC(=N)NC(=N)NCC(CC)CCCC (centres unmarked) | 5 µM | 2 h | – | Papp A→B | < 0.04 ×10⁻⁶ cm/s |
| O=C(CNC(=O)c1cccc(NC2=NCC(F)(F)CN2)c1)NC[C@H](NC(=O)c1c(Cl)cc(-c2ccccc2)cc1Cl)C(=O)O | – | – | – | Papp B→A | 2.1 ×10⁻⁶ cm/s |
| CCCCC(CC)CNC(=N)NC(=N)NCCC (centres unmarked) | 5 µM | 2 h | – | Papp B→A | 6.74 ×10⁻⁶ cm/s |
| O=c1c(-c2cnn(-c3ccc(Cl)cc3)c2)c(C(F)(F)F)oc2c(O)c(O)ccc12 | – | – | – | Papp B→A | 52.7 ×10⁻⁶ cm/s |
